Experimental data of several laboratories.
Numbered parts are unrelated; each lists some results of a single study. Changes are numbered by the printed parent chain.

Study 1 — technique: RNA Bind-n-Seq; molecule type: RNA; sample: in vitro; concentration: 365 nM; reference: no-protein control; reading: higher = stronger binding
Target: RNA binding protein fox-1 homolog 2, RRM domain, GST-SBP tag (RBFOX2, Homo sapiens, UniProt O43251-10, residues 100-194)
Setting: natural RNA segment, single round, ends assumed
Residues (chain): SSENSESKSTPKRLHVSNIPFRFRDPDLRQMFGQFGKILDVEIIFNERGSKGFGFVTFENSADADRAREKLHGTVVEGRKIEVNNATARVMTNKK
Strand | RBNS enrichment (R)
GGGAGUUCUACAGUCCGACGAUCCCAUCGGGGACACAGAGUGGCCAGGGCACCCCACCCUUGUCUCCGUGUACCCUAGCUCCCCAUCACUGCGCGCCCUCCAAGCUAGAGAGAUGGGACCCCAGGGGGGGUUAUGGAAUUCUCGGGUGCCAA | 0.426
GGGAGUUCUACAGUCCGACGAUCCAGACUUUGCACUUACUGCAGUGCACCACUUGCACUUUACUCCCUCCGGCUUCUGAGACAGAGCAAGUACUUCAGCAGUCCUGCUGCUCUUGCUCUGAGCUACAAUCAUGUGGAAUUCUCGGGUGCCAA | 0.224
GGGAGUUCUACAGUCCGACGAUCUUCCCGUUGCUUUGUUUUUCUGUCUGAAGGAAUCUUUUUCUUAGUCUUGUGAGCAGAUGUACCUGAAGGAUUCUGCUGUUCCAUGAGGGUCUGGCUCUCAGGCUGUAGGCUGGAAUUCUCGGGUGCCAA | 4.31
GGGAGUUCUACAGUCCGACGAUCGUCUUAAGGACCUUGUGAUUAGUCAAUCAACAAACCACAACACUUCCUAGGACCUGUUGUACUCCGUGUAACUAUAGGUCUGAAUAUUUUCUGGGUGGUGGUGGCAAGGGUGGAAUUCUCGGGUGCCAA | 0.542
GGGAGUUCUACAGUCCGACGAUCCUCCUUUAAGAGCUGCUUGGUUGUCCAAAAAUGAAAACUCAAAAUAAACUUGGAAGAAGGAAAAAAAUAUGUGUUUAUUCUGAUUCAUUCUUUGUUGGGAAAUUGUCAAUUGGAAUUCUCGGGUGCCAA | 0.6
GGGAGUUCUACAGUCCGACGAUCUUCAGGUUUGAUGUAAGCAUGGGCUUACAUCCCCCAGGUACAUACUUUUACUUAUUGUGGGAUAACCUGGCACUAGUAGGCAGGUAAAGUCACAAAUUUGGUGUCUUUUCUGGAAUUCUCGGGUGCCAA | 0.26
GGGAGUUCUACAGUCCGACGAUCGGGAGACCAAAAGCUCAUACUCCUAACCCUAGGAAAGGGUUUUAGGGAGCCAAGGACCAGAGAGCCACAGGACUAUCCAGAAAGAAACCCAUCAGGGGUGUAGCACAGGGUGGAAUUCUCGGGUGCCAA | 0.383
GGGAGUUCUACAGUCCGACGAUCACCUGAAAUGAAGGAAGAGGAGACUCUGCGCAGAGCACUUUGGGUCCGGAGGGCGAGACUCCGGCGGAAGCAUUCCCGGGCGGGUGACCCAGCACGGUCCCUCUUGGAAUUGGAAUUCUCGGGUGCCAA | 0.503
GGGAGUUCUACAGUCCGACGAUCAUUGUAUGUUAAAGCAUCAGAGAUGGUAAUCUACAGCUCACCUCUGAAGGCAAAUAUAAGCUGGGAAAAAAGUUUUGAUGAAAUUCUUGAAGUUCAUGGUGAUCAGUGCAUGGAAUUCUCGGGUGCCAA | 0.707

Study 2 — technique: RNA Bind-n-Seq; molecule type: RNA; sample: in vitro; concentration: 200 nM; setting: whole 134-nt RNA, ends assumed; together with: 150 mM LiCl; reference: input library; reading: higher = stronger binding; library: 7-deaza-guanosine replaces G
Target: Fragile X messenger ribonucleoprotein 1, C-terminal low-complexity region (Fmr1, Mus musculus, UniProt P35922)
Strand | log2 enrichment
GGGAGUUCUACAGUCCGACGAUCUUUCUGUGUGCUUAGGUGCCCGAGCUACUGAGGGUCUAAGUCCGGGCAGCCGAAGAGUGUGGUAGGUAACGGUCCUCAGCGCAAGGGUCAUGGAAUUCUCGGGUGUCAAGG | 0.48
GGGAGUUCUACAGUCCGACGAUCAAGUCCUGUGCUACACAUCGUAUGUACCGAAUCGGAGGUUUUUUUGGUUUUUUUGGAAAGUAUUAUGUUACGCCGUUCGGAUCUGCACUUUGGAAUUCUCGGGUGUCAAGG | -1.4
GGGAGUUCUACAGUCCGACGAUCAGUCCUGUGCUACACAUCGUAUGUACCGAAUCGGGGAAAAGGGAAAAGGGGAAAAGGGAAAGUAUUAUGUUACGCCGUUCGGAUCUGCACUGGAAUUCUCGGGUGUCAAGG | -0.285
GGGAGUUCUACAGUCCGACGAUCAAGUCCUGUGCUACACAUCGUAUGUACCGAAUCGGUUUUGGGGUUUUGGGUUUUGGGAAAGUAUUAUGUUACGCCGUUCGGAUCUGCACUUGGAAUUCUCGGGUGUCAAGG | -1.06
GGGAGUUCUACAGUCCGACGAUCAGUCCUGUGCUACACAUCGUAUGUACCGAAUCGGGAAAGGGAAAAAGGGUUUUUGGGAAAGUAUUAUGUUACGCCGUUCGGAUCUGCACUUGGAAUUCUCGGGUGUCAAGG | -2.43
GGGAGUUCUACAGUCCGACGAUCGCAGGAAGUAAAAACAAAUGGAAAUGCUUCGGAUAGUGGCAGGGGUGAAAGUUGCUAAGGAAAGGGUGGGAUGGGAGUGGGUAAAGAGUUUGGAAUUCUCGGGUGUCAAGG | 1.79
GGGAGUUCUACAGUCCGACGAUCAGUCCUGUGCUACACAUCGUAUGUACCGAAUCGGCCCCCGGGGCCCCCGGCCCCCGGGAAAGUAUUAUGUUACGCCGUUCGGAUCUGCACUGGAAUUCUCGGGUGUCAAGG | -2.68
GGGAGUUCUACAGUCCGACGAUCCUGUGCUACACAUCGUAUGUACCGAAUCGGGGUUUGGGGUUUUUUUGGGGAAAAAAAGGGGAAAGUAUUAUGUUACGCCGUUCGGAUCUGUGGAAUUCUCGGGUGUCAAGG | -0.576
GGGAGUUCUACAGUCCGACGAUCUGGGAGGUGGAUUUUGUUUAUUUUUUUAGCUCAUUUCCAGGGGUGGGAAUUUUUUUUUAAUAUGUGUCAUGAAUAAAGUUGUAUUUGAAAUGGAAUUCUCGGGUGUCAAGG | 0.262
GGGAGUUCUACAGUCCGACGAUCCAAGUCCUGUGCUACACAUCGUAUGUACCGAAUCGGCCCGGGCCCGGGGCCCGGGAAAGUAUUAUGUUACGCCGUUCGGAUCUGCACUUCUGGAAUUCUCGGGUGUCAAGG | -1.75
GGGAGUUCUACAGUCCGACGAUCCUCAAGUCCUGUGCUACACAUCGUAUGUACCGAAUCGGUGGAAAGGUUUUUGGAAAGUAUUAUGUUACGCCGUUCGGAUCUGCACUUCCAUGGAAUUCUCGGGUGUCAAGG | -0.111

Study 3 — target: CCND1, cyclin fold, Cln2 fusion (human); technique: yeast growth competition, sequencing; sample: yeast; setting: weak parent motif; reference: not given; reading: higher = stronger binding
Parent: WEE1 docking peptide (human); HKTFRKLRLFDTP
Variant | normalised enrichment score
T3P | 0.447
K6G | 0.255
R8N | -0.325
K6V | -0.0708
R8I | 0.988
D11G | -0.547
T3N | -0.635
L9A | 0.0305
T12K | 0.0833

Mixed results
Molecule | target | test | test system | setting | how to read | quantity | result
PhoQ, residues 284 288 289 292 302 303 GANMMA | PhoP, residues 12 14 15 18 19 NQAHL (Escherichia coli, UniProt P23836) | Sort-seq, measured: YFP reporter | E. coli | PhoQ-PhoP variant library, together with: 10 µM Mg2+ | reference: high Mg2+ state, higher = stronger signaling | fold induction | 0.933

Repeated from above (study 1):
Strand | RBNS enrichment (R)
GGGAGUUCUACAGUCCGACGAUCCCAUCGGGGACACAGAGUGGCCAGGGCACCCCACCCUUGUCUCCGUGUACCCUAGCUCCCCAUCACUGCGCGCCCUCCAAGCUAGAGAGAUGGGACCCCAGGGGGGGUUAUGGAAUUCUCGGGUGCCAA | 0.426
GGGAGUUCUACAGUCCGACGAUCCAGACUUUGCACUUACUGCAGUGCACCACUUGCACUUUACUCCCUCCGGCUUCUGAGACAGAGCAAGUACUUCAGCAGUCCUGCUGCUCUUGCUCUGAGCUACAAUCAUGUGGAAUUCUCGGGUGCCAA | 0.224
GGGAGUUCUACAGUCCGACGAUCUUCCCGUUGCUUUGUUUUUCUGUCUGAAGGAAUCUUUUUCUUAGUCUUGUGAGCAGAUGUACCUGAAGGAUUCUGCUGUUCCAUGAGGGUCUGGCUCUCAGGCUGUAGGCUGGAAUUCUCGGGUGCCAA | 4.31
